Measurements collected from several papers.
Parts stem from different laboratories: compare values within a part only.

Series 1 — method: RNA Bind-n-Seq; form: RNA; sample: in vitro; concentration: 365 nM; relative to: no-protein control; reading: higher = stronger binding
Target: RNA binding protein fox-1 homolog 2, RRM domain, GST-SBP tag (RBFOX2, Homo sapiens, UniProt O43251-10, residues 100-194)
Notes: natural RNA segment, single round, ends assumed
All sequences stand within: GGGAGUUCUACAGUCCGACGAUC … UGGAAUUCUCGGGUGCCAA
Residues (chain): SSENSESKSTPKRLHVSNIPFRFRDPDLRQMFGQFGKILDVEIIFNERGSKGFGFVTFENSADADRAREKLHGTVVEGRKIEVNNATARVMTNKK
Oligonucleotide | RBNS enrichment (R)
GUGUGUCUCAGCUGUGUUUAUGAAUUUGUUUGGUUCACACAUAUCUGAGUGGUAUGGAUAACUGGGCAUCUCUAACCCAGGGCAAUCAGUAAGAACUAAUAACCUGUGUC | 0.498
CACGGAGGGUCCAGACUGUCCACUCGGGGGUGGAGUGAGACUGACUGCAAGCCCCACCCUCCUUGAGACUGGAGCUGGCGUCUGCAUACGAGAGACUUGGUUGAACUUGG | 1.09
UGCAGGAGGUAGCAUCACCUCUUGGCAUUUUGUACAUGCUUUUAAACAAUUGGAGGAGCUGCCCAGGCAGUUUUAUGGCCUCCUGGUUGUGUGCCUUCACACCCGCCUAC | 0.445
CCUACCCACCCAAAGAUAGAUAUCCUUUAAAGAAAAUAAAGGCAGAGAAUUAAAACUGGGGAGCCAUUUACUAUGUCACCAUCACUGUUAACUGUUUCCCAGCAAUCUAA | 0.695
UCAGAUACAUGAACAUGUCUUACAUGGGUUGCUGUAUUUAGAAUUAUAAACAUUUUUCAUUAUUGGAAAGUGUAACGGGGACCUUCUGCAUACCUGUUUAGAACCAAAAC | 0.228
UGAAGGACAGAGUAAAGCUUCUGAAUGAGGCUCUGUGGCUUCACACUCUGUCAUCCUAUUGGCUGCUUCCCUCUACUAUUUGUAAAAUGUGUAGUGAAUUAUAACAACCU | 0.207
AGUACCUAUCCUUGUGUUUCUGAUGCAGUGGUAGCAUUGGUUCAAGUUCUCUCCUGCUGUGGUCAGAGUUGCUUCGAUGUUGGCCAAGUGCUUUUCUUCUUGGGCUCCCU | 0.309
CCUGUUUUAAAAACUAAAUGAAGGGAACCACAUUAGGGCCCAUGCCAGCAUCCCAGUGAAGUUCGUCCAGCUCCAGUUAGGUGGAUUCUGGAGUUCGGAGAGGGUUUAAA | 1.08
CACAGAUUGAACUGCUGAACUAGUUGGAGGUCUAGAUGAGGUGCUUUACGCAUCAGCUGCCUUAGACAGCUUCUAGAAAGGAGCGAGCGCUACUUCUUAAGUACUUAAGU | 0.223
UGCUGUGAUACUUCAUUUUUAAAUUGUGAACUUUGUACAAACUUUGUCAUGCUGAUGUGAACACAUCUUACUCUGAAUAAAAAGGUGUUGCCACGUUUGUAGCACGAAGG | 0.493
ACAAAGCCCACCUGCUCAUUCUCGUAGCUUUAAAGAAAAAGAAAAAGGAAAAAUAAGGAAAACUGCAAAUCUAGAAAACUUUUUAGAGAAACCUAUUUAAAACUGUCAGG | 0.625
CCAUCUAGCAGCUGGCCUAAUCACUCUGAGUCACAGGUGUGGGAUGGAGAGUGGGGAGAGGCACUUAAUCUGUAACCCCCAAGGAGGAAAUAACUAAGAGAUUCUUCUAG | 0.558

Series 2 — method: universal PBM; form: double-stranded DNA, one strand shown; sample: in vitro; concentration: not given; reading: higher = stronger binding
Target: Sal-like protein 4, full length isoform B (SALL4, Homo sapiens, UniProt Q9UJQ4-2, residues 1-616)
Notes: 8-mer, flanks averaged, mean of replicates
Residues (chain): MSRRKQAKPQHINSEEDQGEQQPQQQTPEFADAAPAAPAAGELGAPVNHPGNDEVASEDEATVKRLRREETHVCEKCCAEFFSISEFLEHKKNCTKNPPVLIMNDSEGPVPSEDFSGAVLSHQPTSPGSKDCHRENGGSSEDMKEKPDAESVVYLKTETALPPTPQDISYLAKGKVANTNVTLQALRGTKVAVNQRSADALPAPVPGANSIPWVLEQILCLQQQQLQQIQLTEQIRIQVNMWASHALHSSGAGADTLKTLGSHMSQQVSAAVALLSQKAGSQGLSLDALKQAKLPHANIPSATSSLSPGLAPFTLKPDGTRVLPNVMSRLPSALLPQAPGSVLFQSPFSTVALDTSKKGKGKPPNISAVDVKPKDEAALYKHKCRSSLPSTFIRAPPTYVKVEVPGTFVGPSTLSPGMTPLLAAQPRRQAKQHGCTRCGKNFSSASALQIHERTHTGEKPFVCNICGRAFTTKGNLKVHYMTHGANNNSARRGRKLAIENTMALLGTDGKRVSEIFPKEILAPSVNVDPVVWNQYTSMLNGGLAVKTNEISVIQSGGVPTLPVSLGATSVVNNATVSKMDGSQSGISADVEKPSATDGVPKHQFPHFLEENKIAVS
Oligonucleotide | E-score
AGAGAGTG | -0.193
AGAACGTG | -0.00124
GTCCTCCA | 0.00469
GAGTTCAC | -0.208
GCGGGACA | -0.228
ACCGACGC | -0.147
AGACTCGA | -0.0136
CTTTAGAC | 0.111
CACTCGCG | -0.181
ATTTGGAA | 0.226
ACTTGCAG | 0.0105
ATCCGAGC | -0.0741
GTGTCCGA | -0.0968
ACGGGTCA | -0.265
CGCTGGAA | -0.175
CACCGCCG | -0.304
CAATTCGG | -0.0904
AGAGGGGC | -0.28
AGACCCTG | -0.215
AAACTTGG | 0.0615
GATCGGGC | -0.252
AATGTTTC | 0.265
GTGCATTA | 0.23
AGTCTCTG | -0.217
AGTGAAAT | 0.184

Series 3 — method: protein-binding microarray; form: double-stranded DNA, one strand shown; sample: in vitro; concentration: 2200 nM top; notes: 60-bp whole probe; added: salmon DNA 0.4 mg/ml; relative to: random background probes; reading: higher = stronger binding; all sequences stand within: GCCTAGCAC … GTCTTGATTCGCTTGACGCTGCTG
Target: Interferon regulatory factor 7, full length, phosphomimetic (IRF7, Homo sapiens, UniProt Q92985, residues 1-503, S471D/S472D/S475D/S476D/S477D/S483D/S484D/S487D)
Chain of UniProt Q92985 (whole entry, unmodified, looked up): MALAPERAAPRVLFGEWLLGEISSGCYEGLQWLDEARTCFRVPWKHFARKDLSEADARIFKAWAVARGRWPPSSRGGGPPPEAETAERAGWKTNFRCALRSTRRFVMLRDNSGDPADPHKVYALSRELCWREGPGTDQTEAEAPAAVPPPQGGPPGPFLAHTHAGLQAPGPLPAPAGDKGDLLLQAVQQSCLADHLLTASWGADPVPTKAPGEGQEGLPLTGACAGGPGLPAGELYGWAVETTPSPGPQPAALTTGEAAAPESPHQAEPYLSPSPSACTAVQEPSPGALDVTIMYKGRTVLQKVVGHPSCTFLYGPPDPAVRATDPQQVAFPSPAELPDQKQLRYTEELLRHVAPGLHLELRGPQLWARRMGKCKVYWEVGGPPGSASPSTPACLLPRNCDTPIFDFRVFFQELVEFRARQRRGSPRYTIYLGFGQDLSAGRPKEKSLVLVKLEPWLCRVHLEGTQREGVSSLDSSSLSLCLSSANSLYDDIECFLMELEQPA
Oligonucleotide | fitted relative affinity [z-score]
TTAGATTTCAGACTGGATTGGTGCTAG | 0.0148
AACGAACTGGGGTTTCGAGACGTGCTA | 1.13
TTAGGACTGGACACTGGGTTAGTGCTA | -0.651
GACGGTCTCGGACTGGGGATGTGCTAG | -0.446
TCATCTCTGGCCCTCCTACTGTGCTAG | 1.31
TTAGGTCTCCTGATCCTTTAGTGCTAG | 0.304
TTAGGACTGAACTTTCGGTTAGTGCTA | 5.63
GTAGATGCCTTTCTCTTGGAGTGCTAG | 0.644
GACGGACTGCGTATCGGGACGTGCTAG | -0.255
GAAGGTATCGGTTTCGGGACGTGCTAG | 4.31
TCATTTTTCTGAACCATACTGTGCTAG | 2
TTAGATCTCAGTATCTATTAGTGCTAG | 0.307
CTTTCTCCCAAGTCTTGTTTTGTGCTA | 1.8
GACGGACTGGACACAGGGGACGTGCTA | -0.989
CTAGTTTCCATTTTCAGAATGTGCTAG | 8.15
GACGGTTTCGCCTATCGGGACGTGCTA | 3.61
ATAGGTCTCGGTATCGGTTAGTGCTAG | 1.09
GACGGTTTCGGACAGGGGACGTGCTAG | 1.95
GACGAACTGGGGTTTCGAGCCGTGCTA | 0.513
CACGGACTGGGACTGGGGACGTGCTAG | -0.83
TTGGGTTTCGGGACTGGGTTAGTGCTA | 2.74
GTCGGACTGGACTTTCGGGACGTGCTA | 2.4

Series 4 — method: RNA Bind-n-Seq; form: RNA; sample: in vitro; concentration: 200 nM; notes: whole 134-nt RNA, ends assumed; added: 150 mM LiCl; relative to: input library; reading: higher = stronger binding; all molecules: 7-deaza-guanosine replaces G
Target: Ras GTPase-activating protein-binding protein 1, full length (G3BP1, Homo sapiens, UniProt Q13283)
Chain of UniProt Q13283 (whole entry, looked up): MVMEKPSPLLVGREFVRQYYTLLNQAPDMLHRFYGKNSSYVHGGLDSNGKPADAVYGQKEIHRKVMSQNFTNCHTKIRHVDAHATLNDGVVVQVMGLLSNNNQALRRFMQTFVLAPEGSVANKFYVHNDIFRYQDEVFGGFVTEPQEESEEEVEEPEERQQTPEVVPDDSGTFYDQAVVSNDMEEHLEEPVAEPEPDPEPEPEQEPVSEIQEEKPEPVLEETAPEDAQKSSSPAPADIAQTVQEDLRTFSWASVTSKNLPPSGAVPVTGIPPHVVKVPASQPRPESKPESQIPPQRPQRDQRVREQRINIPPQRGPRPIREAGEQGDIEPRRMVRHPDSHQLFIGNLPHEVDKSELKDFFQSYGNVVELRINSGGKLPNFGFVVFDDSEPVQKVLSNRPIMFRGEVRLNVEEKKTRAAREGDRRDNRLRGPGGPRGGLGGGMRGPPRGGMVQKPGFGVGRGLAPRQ
All sequences stand within: GGGAGUUCUACAGUCCGACGAUC … UGGAAUUCUCGGGUGUCAAGG
Oligonucleotide | log2 enrichment
UUGGGCUGCCCAUCACCGUGGCCCAUGUGGAUGGCCAAACCCACAUGUUAUUUGGCUCUGACCGGAUGGAGCUGCUGGCGCACCUGCUGG | 0.0327
AAGUCCUGUGCUACACAUCGUAUGUACCGAAUCGGUUUUUGGUUUUUUUGGUUUGGAAAGUAUUAUGUUACGCCGUUCGGAUCUGCACUU | -1.61
CUCAAGUCCUGUGCUACACAUCGUAUGUACCGAAUCGGGAGGGAGGGAAAGGGAAAGUAUUAUGUUACGCCGUUCGGAUCUGCACUUCCA | 0.0631
GCAGGAAGUAAAAACAAAUGGAAAUGCUUCGGAUAGUGGCAGGGGUGGGGGUUGCUAAGGAAAGGGUGGGUUGGGAGUGGGUAAAGAGUU | 0.338
UGGGAGGUGGAUUUUGUUUAUUUUUUUAGCUCAUUUCCAGGGGUGGGAAUUUUUUUUUAAUAUGUGUCAUGAAUAAAUUUGUUUUUGAAA | -0.222
GGGUGGACACUGACGAGCUGGACAGCAACGUGGACGACUGGGAAGAGGAGACCAUUGAGUUCUUCGUCACUGAAGAAAUCAUUCCCCUCG | -2.36
AAGUCCUGUGCUACACAUCGUAUGUACCGAAUCGGUUUGGAAAAAGGUUUUUUUGGAAAGUAUUAUGUUACGCCGUUCGGAUCUGCACUU | -1.69
GUCCUGUGCUACACAUCGUAUGUACCGAAUCGGCCCCCGGGGCCCCCGGGCCCCCGGGGAAAGUAUUAUGUUACGCCGUUCGGAUCUGCA | -2.11
UAACUUUAGAGUAGGAUCUGAUGGAUAUGGCAGUGGACGUGGAUUUGGGGAUGGCUAUAAUGGGUAUGGAGGAGGACCUGGAGGUGGCAA | -0.218
CACUGACAACACGCACCCACACAGACACAGAGGGAAGGGGUUGGGAUGGGGACAGGGUGCACAGCAGGGCGGGGUAGGACCCCAGCCCCU | -0.824
CCUGUGCUACACAUCGUAUGUACCGAAUCGGCCCCCCCGGCCCCCCCGGGGCCCCCCCGGGAAAGUAUUAUGUUACGCCGUUCGGAUCUG | 0.263

Series 5 — method: RNA Bind-n-Seq; form: RNA; sample: in vitro; concentration: 20 nM; notes: 6-mer, flanks averaged, single round; added: 150 mM LiCl; relative to: input library; reading: higher = stronger binding
Target: TAR DNA-binding protein 43, full length, His tag (TARDBP, Homo sapiens, UniProt Q13148, residues 1-414)
Oligonucleotide | 6-mer enrichment (R)
GUCAAC | 0.824
AGAUGG | 1.04
CUAAAU | 0.885
GCAUUG | 0.939
GUCUUA | 0.928
AUGUUA | 1.1
CUGAAC | 0.832
CUGACG | 0.859
AGUGGU | 1.28
AAAGUA | 0.912
AGCAUA | 0.86
UAUAAC | 0.936
ACAAAC | 0.81
AAGCGU | 0.954
AUUGCC | 0.95
GAACAA | 0.89
GAGGGG | 1.47
GUCUAG | 0.927
CAGGGG | 1.18
CACCCG | 1.03

Series 6 — method: protein binding microarray; form: double-stranded DNA, one strand shown; sample: in vitro; concentration: not given; relative to: not given; reading: higher = stronger binding
Target: Histone acetyltransferase KAT6A, winged helix 2, GST fusion (KAT6A, Homo sapiens, UniProt Q92794, residues 85-181)
Notes: 8-mer, flanks averaged, mean of 2 arrays, mostly near background
Construct (chain): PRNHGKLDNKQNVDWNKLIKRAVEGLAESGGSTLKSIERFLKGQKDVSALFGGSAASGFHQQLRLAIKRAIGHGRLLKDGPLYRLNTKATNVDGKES
Oligonucleotide | E-score
CTCGCCAG | 0.0157
GATAATGC | -0.00353
TACCGTCA | 0.0277
AGGACGTG | -0.0865
GTACGCCA | -0.0569
AAAAACTT | -0.00284
AACTTCCA | -0.019
TAAAATAA | 0.0639
ACTGTACG | -0.257
GAATTAGC | 0.0792
AGTAACAC | -0.0121
CGTGCTTA | 0.0717
CATGATCG | -0.237
GACCAGTA | -0.0599
GGTCCCAA | 0.0336
CTCCGTTA | 0.0835
AGAATCCT | -0.0251
ATCCAAGG | -0.0702
AAAGACCG | -0.0953
ACCACACT | -0.0742
GGGGTCTA | -0.0186
GCGGATGA | 0.0622

Series 7 — method: RNAcompete; form: RNA; sample: in vitro; concentration: 20 nM; notes: 7-mer, probes averaged, single round; relative to: mean of 7-mers; reading: higher = stronger binding
Target: PABPC1L2, full length, GST fusion (mouse, UniProt A0ABA7IW68)
Oligonucleotide | 7-mer Z-score
CUAAUGG | -0.316
UUGAUCG | -0.17
GCUUAUA | -0.229
CUCUCCC | -0.354
AAUUUCG | -0.0754
AUAUGGC | 0.0152
AGCUCUG | -0.331
CUGUAAA | 0.974
CGGUGCA | 0.0352
UGCUUCA | -0.289
UGGAUCC | 0.00436
AUGCAGU | -0.151
AACACCA | 0.336
CAGUUAC | -0.222
UGAGUAU | -0.166
UCUUGUU | -0.507
GACUAAG | 0.0352
UUCACAG | -0.293
